Measurements pooled from the literature.
Every numbered part comes from another study and shows a few of its results, in no order. Substitutions count along the parent as printed.
UniProt Q13555, sequence (whole entry, looked up): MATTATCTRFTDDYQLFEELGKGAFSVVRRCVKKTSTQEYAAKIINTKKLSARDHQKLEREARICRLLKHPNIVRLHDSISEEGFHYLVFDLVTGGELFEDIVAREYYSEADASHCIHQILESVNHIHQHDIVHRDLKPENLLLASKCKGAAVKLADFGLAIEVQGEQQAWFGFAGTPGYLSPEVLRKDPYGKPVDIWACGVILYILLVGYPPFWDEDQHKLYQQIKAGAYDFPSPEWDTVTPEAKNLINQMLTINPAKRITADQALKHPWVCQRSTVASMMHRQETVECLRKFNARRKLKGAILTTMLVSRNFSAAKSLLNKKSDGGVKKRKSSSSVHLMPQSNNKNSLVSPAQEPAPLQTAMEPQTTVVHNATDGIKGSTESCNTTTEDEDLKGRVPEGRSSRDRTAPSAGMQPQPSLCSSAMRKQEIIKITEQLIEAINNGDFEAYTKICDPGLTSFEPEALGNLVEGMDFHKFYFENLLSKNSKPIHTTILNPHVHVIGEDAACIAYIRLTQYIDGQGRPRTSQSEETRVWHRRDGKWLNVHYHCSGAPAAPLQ
UniProt P33981, sequence (whole entry, looked up): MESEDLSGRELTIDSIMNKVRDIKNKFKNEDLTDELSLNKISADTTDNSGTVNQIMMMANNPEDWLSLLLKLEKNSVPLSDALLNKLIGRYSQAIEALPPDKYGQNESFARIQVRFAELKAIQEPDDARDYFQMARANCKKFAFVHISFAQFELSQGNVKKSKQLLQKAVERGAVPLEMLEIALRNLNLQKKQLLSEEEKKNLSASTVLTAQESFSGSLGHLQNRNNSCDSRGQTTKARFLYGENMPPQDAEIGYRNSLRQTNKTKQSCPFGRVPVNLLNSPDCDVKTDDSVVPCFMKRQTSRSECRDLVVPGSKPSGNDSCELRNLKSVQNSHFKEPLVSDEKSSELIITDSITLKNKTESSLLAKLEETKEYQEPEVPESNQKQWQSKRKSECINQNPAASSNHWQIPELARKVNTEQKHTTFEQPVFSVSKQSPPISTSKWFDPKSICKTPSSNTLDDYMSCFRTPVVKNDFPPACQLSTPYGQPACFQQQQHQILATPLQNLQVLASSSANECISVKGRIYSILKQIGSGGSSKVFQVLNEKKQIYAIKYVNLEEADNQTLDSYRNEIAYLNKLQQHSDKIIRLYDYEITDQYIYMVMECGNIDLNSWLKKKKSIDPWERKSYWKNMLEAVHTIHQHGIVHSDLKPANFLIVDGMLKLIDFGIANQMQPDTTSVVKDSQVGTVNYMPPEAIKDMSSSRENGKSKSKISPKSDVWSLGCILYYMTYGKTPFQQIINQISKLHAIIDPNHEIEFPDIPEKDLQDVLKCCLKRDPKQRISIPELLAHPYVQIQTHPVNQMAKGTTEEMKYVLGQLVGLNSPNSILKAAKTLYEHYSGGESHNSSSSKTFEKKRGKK
UniProt Q9P2K8, sequence (whole entry, unmodified, looked up): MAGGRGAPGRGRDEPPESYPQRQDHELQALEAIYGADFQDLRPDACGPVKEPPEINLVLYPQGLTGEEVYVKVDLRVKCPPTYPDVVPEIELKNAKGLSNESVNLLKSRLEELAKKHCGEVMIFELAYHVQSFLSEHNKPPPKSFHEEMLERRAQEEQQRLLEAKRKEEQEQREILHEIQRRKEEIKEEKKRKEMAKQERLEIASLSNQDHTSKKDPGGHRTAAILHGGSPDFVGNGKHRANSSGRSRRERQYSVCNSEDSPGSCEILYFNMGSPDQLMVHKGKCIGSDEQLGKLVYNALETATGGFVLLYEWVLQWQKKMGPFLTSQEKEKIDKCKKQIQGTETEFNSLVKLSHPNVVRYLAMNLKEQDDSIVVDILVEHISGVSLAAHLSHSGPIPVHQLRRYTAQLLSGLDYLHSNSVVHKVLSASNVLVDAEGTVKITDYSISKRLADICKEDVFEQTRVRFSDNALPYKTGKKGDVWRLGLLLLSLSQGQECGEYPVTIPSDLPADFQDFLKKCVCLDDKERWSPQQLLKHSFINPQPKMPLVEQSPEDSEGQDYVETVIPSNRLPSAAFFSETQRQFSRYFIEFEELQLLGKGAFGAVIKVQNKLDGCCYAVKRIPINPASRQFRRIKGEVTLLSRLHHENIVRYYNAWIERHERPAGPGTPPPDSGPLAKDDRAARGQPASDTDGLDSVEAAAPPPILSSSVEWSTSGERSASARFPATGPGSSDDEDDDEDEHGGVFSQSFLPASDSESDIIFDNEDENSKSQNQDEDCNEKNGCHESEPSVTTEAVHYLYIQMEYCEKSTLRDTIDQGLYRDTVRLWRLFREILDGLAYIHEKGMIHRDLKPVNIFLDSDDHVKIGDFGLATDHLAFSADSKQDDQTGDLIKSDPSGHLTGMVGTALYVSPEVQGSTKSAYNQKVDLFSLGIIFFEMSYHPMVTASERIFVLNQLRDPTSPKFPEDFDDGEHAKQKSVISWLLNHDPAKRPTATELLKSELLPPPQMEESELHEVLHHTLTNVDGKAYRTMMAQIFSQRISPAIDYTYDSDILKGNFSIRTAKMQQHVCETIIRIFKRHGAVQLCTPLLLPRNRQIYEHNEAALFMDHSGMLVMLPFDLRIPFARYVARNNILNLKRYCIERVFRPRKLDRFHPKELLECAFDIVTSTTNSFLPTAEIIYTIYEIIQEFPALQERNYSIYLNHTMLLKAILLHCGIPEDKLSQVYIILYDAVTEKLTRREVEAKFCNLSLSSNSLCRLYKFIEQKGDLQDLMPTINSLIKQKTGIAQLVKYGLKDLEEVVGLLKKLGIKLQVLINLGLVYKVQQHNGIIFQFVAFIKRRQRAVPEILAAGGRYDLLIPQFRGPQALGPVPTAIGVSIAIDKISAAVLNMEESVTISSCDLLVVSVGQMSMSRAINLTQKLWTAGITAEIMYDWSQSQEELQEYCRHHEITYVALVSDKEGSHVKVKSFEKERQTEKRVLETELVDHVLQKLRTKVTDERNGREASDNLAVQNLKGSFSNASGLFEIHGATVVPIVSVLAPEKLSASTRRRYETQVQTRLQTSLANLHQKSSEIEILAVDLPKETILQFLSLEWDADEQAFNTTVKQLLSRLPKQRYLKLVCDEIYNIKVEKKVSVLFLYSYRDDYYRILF
UniProt O75716, sequence (whole entry, looked up): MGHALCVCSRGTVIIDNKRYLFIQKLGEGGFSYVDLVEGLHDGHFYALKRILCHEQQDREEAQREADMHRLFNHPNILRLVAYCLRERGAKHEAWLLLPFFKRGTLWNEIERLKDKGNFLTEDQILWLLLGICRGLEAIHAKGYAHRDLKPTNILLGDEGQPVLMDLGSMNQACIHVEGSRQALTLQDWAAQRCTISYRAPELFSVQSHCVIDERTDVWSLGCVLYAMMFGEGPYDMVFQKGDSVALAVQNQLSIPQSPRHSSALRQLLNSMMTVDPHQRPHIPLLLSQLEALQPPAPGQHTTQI
UniProt Q9BZL6, sequence (whole entry, looked up): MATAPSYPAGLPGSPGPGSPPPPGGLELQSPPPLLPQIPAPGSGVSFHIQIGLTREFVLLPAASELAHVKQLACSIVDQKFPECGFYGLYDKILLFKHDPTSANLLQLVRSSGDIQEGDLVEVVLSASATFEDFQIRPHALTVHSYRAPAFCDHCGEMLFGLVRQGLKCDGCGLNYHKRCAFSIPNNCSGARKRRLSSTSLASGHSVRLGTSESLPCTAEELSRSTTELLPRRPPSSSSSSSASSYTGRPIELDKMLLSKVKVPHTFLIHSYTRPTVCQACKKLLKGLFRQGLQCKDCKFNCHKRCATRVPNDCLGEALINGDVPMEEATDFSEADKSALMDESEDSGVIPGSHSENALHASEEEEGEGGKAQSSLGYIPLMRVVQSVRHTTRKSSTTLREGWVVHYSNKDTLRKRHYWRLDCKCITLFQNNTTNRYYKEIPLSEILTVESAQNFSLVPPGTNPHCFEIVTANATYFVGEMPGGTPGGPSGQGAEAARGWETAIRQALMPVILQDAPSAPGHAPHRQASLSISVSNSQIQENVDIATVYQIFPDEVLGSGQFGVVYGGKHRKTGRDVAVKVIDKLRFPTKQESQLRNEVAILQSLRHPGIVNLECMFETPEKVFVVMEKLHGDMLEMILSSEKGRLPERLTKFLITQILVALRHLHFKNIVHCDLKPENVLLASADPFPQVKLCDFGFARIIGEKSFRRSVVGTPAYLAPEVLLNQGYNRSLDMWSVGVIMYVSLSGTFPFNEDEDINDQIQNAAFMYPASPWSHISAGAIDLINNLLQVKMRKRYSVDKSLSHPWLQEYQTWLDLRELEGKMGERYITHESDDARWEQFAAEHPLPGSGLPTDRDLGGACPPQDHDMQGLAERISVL
UniProt Q9UPE1, sequence (whole entry, looked up): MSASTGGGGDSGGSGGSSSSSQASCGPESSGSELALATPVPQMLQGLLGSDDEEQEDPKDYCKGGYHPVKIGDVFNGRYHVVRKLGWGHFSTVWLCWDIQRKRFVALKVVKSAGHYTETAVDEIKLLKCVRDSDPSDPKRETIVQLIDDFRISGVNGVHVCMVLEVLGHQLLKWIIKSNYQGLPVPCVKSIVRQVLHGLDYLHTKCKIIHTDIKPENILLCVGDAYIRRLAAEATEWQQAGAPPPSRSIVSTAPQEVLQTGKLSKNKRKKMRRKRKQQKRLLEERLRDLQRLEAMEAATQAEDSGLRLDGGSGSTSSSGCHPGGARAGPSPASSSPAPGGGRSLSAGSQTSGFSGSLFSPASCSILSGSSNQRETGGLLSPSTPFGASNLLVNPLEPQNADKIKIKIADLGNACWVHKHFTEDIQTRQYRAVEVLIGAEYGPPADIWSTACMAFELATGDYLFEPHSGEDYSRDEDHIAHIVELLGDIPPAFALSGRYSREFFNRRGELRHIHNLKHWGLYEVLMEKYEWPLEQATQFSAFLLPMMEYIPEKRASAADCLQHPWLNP

Set 1
SMILES: COc1ccc2c(c1)O[C@@H](c1ccc(OC)c(OC)c1)C[C@H]2NC(=O)C1(c2ccc3c(c2)OC(F)(F)O3)CC1
Method: competition with immobilised ligand
Concentration: 1 µM
Measurement: remaining binding
Receptor-interacting serine/threonine-protein kinase 1 (RIPK1, Homo sapiens, UniProt Q13546); cell-free assay: 93%
Myosin-IIIa (MYO3A, Homo sapiens, UniProt Q8NEV4); binding: 93%
SRSF protein kinase 3 (SRPK3, Homo sapiens, UniProt Q9UPE1); cell-free assay: 100%
BDNF/NT-3 growth factors receptor (NTRK2, Homo sapiens, UniProt Q16620); cell-free assay: 91%
Testis-specific serine/threonine-protein kinase 3 (TSSK3, Homo sapiens, UniProt Q96PN8); cell-free assay: 57%
Calcium/calmodulin-dependent protein kinase type II subunit gamma (CAMK2G, Homo sapiens, UniProt Q13555); cell-free assay: 96%
Dual specificity protein kinase TTK (TTK, Homo sapiens, UniProt P33981); cell-free assay: 100%
Serine/threonine-protein kinase 16 (STK16, Homo sapiens, UniProt O75716); cell-free assay: 81%
Serine/threonine-protein kinase D2 (PRKD2, Homo sapiens, UniProt Q9BZL6); cell-free assay: 100%
eIF-2-alpha kinase GCN2, C-terminal kinase domain (EIF2AK4, Homo sapiens, UniProt Q9P2K8, S808G); cell-free assay: 95%
Dual specificity mitogen-activated protein kinase kinase 2 (MAP2K2, Homo sapiens, UniProt P36507); cell-free assay: 87%

Set 2
Species: human
Matrix: microsomes or S9
Concentration: 2 µM
Time: 0.5 h
Measurement: remaining compound
CC(=O)c1c(O)c(-c2ccc(Cl)cc2)c[nH]c1=O: 67.7%
COC(=O)c1cc2cc(-c3ccccc3)c3ccccc3c2o1: 57%
Cc1nn(-c2cccc(Cl)c2)c(Cl)c1CN1CCn2c(n[nH]c2=O)C1: 77.8%

Set 3
Target: TAR DNA-binding protein 43, full length, His tag (TARDBP, Homo sapiens, UniProt Q13148, residues 1-414)
Method: RNA Bind-n-Seq
Form: RNA
Matrix: in vitro
Concentration: 20 nM
Notes: 6-mer, flanks averaged, single round
Together with: 150 mM LiCl
Reference: input library
Reading: higher = stronger binding
Measurement: 6-mer enrichment (R)
GAACCG: 0.902
ACACCA: 0.989
UAGCAC: 0.875
AAUUAG: 0.952
UACAGA: 0.813
GACAGG: 0.991
CUUCGU: 0.88
GAAUAA: 0.975

Set 4
Target: ABI1, truncated, D143A, DHFR fusion (Arabidopsis thaliana)
Method: DHFR PCA, deep sequencing
Matrix: yeast
Notes: methotrexate growth selection, single substitutions
Together with: (+)-ABA 2500 µM
Reference: wild-type fitted maximum
Reading: higher = stronger binding
Measurement: relative binding score
Starting sequence: PYL1, truncated, DHFR fusion (Arabidopsis thaliana); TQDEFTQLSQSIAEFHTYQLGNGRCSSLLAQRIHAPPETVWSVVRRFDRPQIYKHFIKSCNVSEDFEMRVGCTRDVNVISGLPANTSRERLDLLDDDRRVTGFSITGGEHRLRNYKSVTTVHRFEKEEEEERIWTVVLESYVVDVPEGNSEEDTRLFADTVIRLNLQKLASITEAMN
K168C: 96.8%
T101D: 0.11%
I162N: 77.7%
T173M: 92.9%
G21W: 96.4%
E174A: 91.8%
E67I: 105%
L91A: 47.6%

Excerpt of the above (set 1):
Calcium/calmodulin-dependent protein kinase type II subunit gamma (CAMK2G, Homo sapiens, UniProt Q13555); cell-free assay: 96%
Dual specificity protein kinase TTK (TTK, Homo sapiens, UniProt P33981); cell-free assay: 100%
